Experimental data collected from several papers.
Parts stem from different laboratories: compare values within a part only. Values joined by “and” are separate records of one study, mostly repeats; a detail may differ.
Chain of UniProt Q00532 (whole entry, looked up): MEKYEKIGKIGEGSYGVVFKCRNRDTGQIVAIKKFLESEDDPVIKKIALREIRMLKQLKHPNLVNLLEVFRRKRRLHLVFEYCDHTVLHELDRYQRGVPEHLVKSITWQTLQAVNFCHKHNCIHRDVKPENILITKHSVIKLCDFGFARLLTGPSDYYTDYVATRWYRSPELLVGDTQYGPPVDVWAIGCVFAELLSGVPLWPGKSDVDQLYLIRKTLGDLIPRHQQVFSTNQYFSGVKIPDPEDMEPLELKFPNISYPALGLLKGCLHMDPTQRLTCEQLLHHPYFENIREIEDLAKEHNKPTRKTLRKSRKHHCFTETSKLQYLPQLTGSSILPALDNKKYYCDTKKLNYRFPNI
Chain of UniProt Q8TBX8 (whole entry, looked up): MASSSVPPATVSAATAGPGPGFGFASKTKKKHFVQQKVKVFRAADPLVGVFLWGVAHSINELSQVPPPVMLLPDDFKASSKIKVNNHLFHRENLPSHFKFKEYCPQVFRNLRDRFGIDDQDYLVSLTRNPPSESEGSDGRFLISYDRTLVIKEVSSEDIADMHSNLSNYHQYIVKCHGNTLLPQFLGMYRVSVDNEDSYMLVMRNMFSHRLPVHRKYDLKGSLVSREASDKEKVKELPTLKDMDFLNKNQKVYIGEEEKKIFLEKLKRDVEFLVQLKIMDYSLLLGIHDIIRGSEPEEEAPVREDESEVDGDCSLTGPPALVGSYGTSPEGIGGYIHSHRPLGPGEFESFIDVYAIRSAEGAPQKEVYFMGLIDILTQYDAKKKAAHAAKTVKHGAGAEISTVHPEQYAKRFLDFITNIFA
Chain of UniProt Q16659 (whole entry, looked up): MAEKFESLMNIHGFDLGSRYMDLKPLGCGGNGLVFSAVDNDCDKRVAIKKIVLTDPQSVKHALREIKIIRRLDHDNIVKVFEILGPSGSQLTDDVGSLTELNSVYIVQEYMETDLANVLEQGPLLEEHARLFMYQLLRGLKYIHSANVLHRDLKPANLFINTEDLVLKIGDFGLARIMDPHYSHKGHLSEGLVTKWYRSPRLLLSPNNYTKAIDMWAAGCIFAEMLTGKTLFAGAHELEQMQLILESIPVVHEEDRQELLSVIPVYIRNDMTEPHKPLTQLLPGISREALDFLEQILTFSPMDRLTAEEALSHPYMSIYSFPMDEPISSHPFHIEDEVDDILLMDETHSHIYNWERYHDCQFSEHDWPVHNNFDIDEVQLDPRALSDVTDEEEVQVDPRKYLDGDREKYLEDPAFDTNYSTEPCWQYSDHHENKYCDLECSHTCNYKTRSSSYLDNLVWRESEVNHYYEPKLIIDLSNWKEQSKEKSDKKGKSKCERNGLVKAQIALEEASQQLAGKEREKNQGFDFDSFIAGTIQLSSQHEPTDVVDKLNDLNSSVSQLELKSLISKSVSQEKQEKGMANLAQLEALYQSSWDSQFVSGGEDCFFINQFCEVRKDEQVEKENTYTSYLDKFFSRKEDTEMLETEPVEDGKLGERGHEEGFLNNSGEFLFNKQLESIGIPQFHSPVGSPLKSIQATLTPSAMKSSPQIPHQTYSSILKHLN
Chain of UniProt Q9H093 (whole entry, looked up): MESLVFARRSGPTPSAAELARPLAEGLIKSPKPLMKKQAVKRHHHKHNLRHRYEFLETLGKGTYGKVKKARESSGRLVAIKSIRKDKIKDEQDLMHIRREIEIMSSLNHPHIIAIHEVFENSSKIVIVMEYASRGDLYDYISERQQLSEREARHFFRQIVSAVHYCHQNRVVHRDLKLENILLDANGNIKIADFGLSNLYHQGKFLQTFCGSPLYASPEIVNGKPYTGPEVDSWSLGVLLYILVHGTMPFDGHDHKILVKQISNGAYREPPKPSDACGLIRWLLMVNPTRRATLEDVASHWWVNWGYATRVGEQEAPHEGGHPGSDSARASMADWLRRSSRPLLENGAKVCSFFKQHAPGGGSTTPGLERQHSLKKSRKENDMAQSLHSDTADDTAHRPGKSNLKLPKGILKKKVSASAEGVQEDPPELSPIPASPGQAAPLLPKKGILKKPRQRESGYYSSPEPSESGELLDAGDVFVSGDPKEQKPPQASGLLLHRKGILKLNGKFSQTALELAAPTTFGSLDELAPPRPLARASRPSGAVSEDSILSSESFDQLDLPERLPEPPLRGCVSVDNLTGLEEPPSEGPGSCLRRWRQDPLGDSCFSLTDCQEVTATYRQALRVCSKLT
Chain of UniProt Q86Z02 (whole entry, looked up): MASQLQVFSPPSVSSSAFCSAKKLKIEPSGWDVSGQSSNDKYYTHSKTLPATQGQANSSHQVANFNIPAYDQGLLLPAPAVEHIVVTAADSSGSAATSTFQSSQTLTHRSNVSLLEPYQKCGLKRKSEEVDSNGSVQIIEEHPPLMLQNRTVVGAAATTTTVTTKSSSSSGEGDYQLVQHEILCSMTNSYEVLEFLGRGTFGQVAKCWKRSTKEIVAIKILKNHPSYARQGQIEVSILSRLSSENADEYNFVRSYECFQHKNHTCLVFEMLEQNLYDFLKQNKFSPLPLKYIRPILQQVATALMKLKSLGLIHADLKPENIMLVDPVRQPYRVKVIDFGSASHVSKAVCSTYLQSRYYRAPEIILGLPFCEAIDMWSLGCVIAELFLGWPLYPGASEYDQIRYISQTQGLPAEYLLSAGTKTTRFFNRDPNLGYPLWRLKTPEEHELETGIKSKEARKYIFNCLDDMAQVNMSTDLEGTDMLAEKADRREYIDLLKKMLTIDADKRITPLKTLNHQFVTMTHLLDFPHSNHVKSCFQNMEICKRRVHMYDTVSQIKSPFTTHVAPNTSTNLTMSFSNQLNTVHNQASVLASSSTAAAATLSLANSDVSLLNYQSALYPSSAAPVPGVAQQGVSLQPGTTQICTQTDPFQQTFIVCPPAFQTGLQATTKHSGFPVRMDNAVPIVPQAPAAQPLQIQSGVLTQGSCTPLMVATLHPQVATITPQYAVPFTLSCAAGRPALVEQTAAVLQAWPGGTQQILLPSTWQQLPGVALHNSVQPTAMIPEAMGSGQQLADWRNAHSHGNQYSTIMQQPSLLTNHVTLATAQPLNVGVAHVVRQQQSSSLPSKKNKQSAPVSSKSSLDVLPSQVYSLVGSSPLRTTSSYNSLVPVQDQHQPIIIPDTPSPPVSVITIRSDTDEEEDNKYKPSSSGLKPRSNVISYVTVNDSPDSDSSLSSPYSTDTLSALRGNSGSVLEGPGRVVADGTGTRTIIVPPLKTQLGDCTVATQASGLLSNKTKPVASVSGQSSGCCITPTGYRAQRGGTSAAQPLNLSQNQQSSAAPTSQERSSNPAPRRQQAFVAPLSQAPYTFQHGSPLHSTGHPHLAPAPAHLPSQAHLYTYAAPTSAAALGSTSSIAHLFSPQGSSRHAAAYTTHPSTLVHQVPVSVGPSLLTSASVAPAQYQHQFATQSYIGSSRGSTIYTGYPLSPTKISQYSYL
Chain of UniProt Q13705 (whole entry, looked up): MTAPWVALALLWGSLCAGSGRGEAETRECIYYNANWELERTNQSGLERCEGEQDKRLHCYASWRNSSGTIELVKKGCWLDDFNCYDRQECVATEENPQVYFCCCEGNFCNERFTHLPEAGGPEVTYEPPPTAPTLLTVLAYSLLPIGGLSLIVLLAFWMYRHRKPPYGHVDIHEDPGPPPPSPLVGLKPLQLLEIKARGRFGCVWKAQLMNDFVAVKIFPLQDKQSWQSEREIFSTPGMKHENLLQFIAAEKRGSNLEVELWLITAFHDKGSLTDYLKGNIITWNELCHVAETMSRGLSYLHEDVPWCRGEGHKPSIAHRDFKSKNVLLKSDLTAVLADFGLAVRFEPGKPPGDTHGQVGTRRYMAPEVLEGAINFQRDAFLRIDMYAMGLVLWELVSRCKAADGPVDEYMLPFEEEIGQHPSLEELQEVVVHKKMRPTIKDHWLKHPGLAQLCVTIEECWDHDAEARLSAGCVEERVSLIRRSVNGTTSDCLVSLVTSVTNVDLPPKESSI
Chain of UniProt P30291 (whole entry, looked up): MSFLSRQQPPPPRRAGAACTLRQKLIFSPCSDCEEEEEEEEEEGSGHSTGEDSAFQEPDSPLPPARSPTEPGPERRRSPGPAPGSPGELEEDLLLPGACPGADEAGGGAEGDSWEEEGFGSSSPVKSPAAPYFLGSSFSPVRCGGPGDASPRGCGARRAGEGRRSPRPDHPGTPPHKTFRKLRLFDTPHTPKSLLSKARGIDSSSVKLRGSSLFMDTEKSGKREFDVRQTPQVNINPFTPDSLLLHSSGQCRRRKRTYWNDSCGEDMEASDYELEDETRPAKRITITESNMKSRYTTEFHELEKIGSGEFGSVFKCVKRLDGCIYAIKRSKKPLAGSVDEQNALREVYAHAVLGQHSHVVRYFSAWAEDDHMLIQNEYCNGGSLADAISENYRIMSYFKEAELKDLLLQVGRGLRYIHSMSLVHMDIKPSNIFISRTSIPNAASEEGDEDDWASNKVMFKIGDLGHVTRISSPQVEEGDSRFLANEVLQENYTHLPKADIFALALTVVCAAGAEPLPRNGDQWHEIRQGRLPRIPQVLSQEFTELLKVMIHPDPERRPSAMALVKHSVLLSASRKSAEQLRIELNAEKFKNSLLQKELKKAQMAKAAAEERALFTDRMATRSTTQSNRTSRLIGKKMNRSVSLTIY

Sample 1
Target: Proto-oncogene tyrosine-protein kinase Src (SRC, Homo sapiens, UniProt P12931)
Read-out: enzyme activity
Mode: inhibitor
Tested at: 0.5 µM
Reference: control
For `O=c1c2ccccc2[nH]c(=S)n1CCN1CCC(=C(c2ccc(F)cc2)c2ccc(F)cc2)CC1`, the remaining activity was 103%.
For `Cn1sc(=O)n(Cc2ccccc2)c1=O`, the remaining activity was 95%.
`O=C(CCCc1ccc(-c2ccccc2F)cc1)Nc1ccc(O)cc1` gave a remaining activity of 93.7%.
For `COc1cc2nccc(Oc3ccc(NC(=S)NC(=O)c4ccccc4C)cc3)c2cc1OC`, the remaining activity was 71.7%.
`NCCNc1ncc(C(N)=O)c(Nc2cccc(C(F)(F)F)c2)n1` has a remaining activity of 71.8%.
`COc1ccc(CNC(=O)Nc2ncc([N+](=O)[O-])s2)cc1` has a remaining activity of 101%.
With `Nc1ncnc2n[nH]c(Nc3ccc(F)cc3)c12` the remaining activity was 89.6%.
With `Cc1ccc(Nc2nccc(N(C)c3ccc4c(C)n(C)nc4c3)n2)cc1S(N)(=O)=O` the remaining activity was 70.7%.
The remaining activity of `COc1ccc(C(=O)Nc2sc3c(c2C(N)=O)CCCC3)cc1OC` is reported as 100%.
The remaining activity of `COc1cc2ncnc(Nc3ccc(Oc4ccccc4)cc3)c2cc1OC` is reported as 82.8%.
`Cc1ccc(NC(=O)c2ccc(CN3CCN(C)CC3)cc2)cc1Nc1nc(-c2cccnc2)cs1` has a remaining activity of 80%.
With `OCC(O)CCON=C1C(c2c(O)[nH]c3ccccc23)=Nc2ccccc21` (stereo not drawn) the remaining activity was 22.6%.
`Cc1cccc(-c2[nH]c(C(C)(C)C)nc2-c2ccc3c(c2)OCO3)n1` gave a remaining activity of 96%.
The remaining activity of `CN(C)c1ccc(C=C2C(=O)Nc3ccccc32)cc1` is reported as 102%.
`O=S(=O)(c1cccc2cnccc12)N1CCCNCC1` gave a remaining activity of 85.3%.

Sample 2
Structure (SMILES): Nc1c(C(=O)NCc2ccc(C(=O)NCCCC3CCCCC3)cc2)cnn1-c1ccccc1
Read-out: cell-free assay
Method: competition with immobilised ligand
Tested at: 0.1 µM
The remaining binding was 100% (Cyclin-G-associated kinase (GAK, Homo sapiens, UniProt O14976)).
For Focal adhesion kinase 1 (PTK2, Homo sapiens, UniProt Q05397): remaining binding read 99%.
It gave 92% for remaining binding (Mitogen-activated protein kinase 6 (MAPK6, Homo sapiens, UniProt Q16659)).
For Myotonin-protein kinase (DMPK, Homo sapiens, UniProt Q09013): remaining binding read 77%.
The remaining binding was 100% (Cyclin-dependent kinase-like 1 (CDKL1, Homo sapiens, UniProt Q00532)).
The remaining binding was 100% (5'-AMP-activated protein kinase catalytic subunit alpha-2 (PRKAA2, Homo sapiens, UniProt P54646)).
Tyrosine-protein kinase ABL1, non-phosphorylated (ABL1, Homo sapiens, UniProt P00519, T315I) — remaining binding: 100%.
It gave 100% for remaining binding (Beta-adrenergic receptor kinase 1 (GRK2, Homo sapiens, UniProt P25098)).
For Myosin-IIIa (MYO3A, Homo sapiens, UniProt Q8NEV4): remaining binding read 100%.

Sample 3
Compound: CC#CC(=O)N1CCC[C@H]1c1nc(-c2ccc(C(=O)Nc3ccccn3)cc2)c2c(N)nccn12
Mode: inhibitor
Tested at: 1 µM
The inhibition was 29% (Homeodomain-interacting protein kinase 1 (HIPK1, Homo sapiens, UniProt Q86Z02); enzyme activity).
For BDNF/NT-3 growth factors receptor (NTRK2, Homo sapiens, UniProt Q16620); enzyme activity: inhibition read 0%.
It gave 0% for inhibition (Wee1-like protein kinase (WEE1, Homo sapiens, UniProt P30291); enzyme activity).
The inhibition was 1% (Platelet-derived growth factor receptor alpha (PDGFRA, Homo sapiens, UniProt P16234); enzyme activity).
For Activin receptor type-2B (ACVR2B, Homo sapiens, UniProt Q13705); enzyme activity: inhibition read 0%.
It gave 5% for inhibition (TRAF2 and NCK-interacting protein kinase (TNIK, Homo sapiens, UniProt Q9UKE5); enzyme activity).
The inhibition was 0% (Phosphatidylinositol 5-phosphate 4-kinase type-2 gamma (PIP4K2C, Homo sapiens, UniProt Q8TBX8); enzyme activity).
It gave 11% for inhibition (NUAK family SNF1-like kinase 2 (NUAK2, Homo sapiens, UniProt Q9H093); enzyme activity).
For Serine/threonine-protein kinase 17B (STK17B, Homo sapiens, UniProt O94768); enzyme activity: inhibition read 0%.
It gave 29% for inhibition (Serine/threonine-protein kinase WNK2 (WNK2, Homo sapiens, UniProt Q9Y3S1); enzyme activity).
It gave 0% for inhibition (Serine/threonine-protein kinase ULK1 (ULK1, Homo sapiens, UniProt O75385); enzyme activity).
For Non-receptor tyrosine-protein kinase TYK2, JH1 domain (TYK2, Homo sapiens, UniProt P29597): inhibition read 6%.

Sample 4
Compound: COc1cc(C(=O)OCCCN2CCCN(CCCOC(=O)c3cc(OC)c(OC)c(OC)c3)CC2)cc(OC)c1OC
Route: subcutaneous
von Frey, 0.4 g filament; mouse, CFA inflammatory pain; 10 mg/kg, 24 h post-dose, third injection, day 5 — “paw withdrawal frequency”: 60% and 70% and 80% and 90%.
von Frey test; mouse, STZ diabetic neuropathy; 30 mg/kg, second of three doses, 0 h — “paw withdrawal frequency”: 0.17 fraction of stimuli and 0.07 fraction of stimuli and 0.23 fraction of stimuli and 0.32 fraction of stimuli and 0.05 fraction of stimuli.
For von Frey, 0.4 g filament; mouse, CFA inflammatory pain; 10 mg/kg, 3 h post-dose, second injection, day 3: “paw withdrawal frequency” read 80% and 60% and 70% and 90%.

For quick reference, copied from above (sample 3):
It gave 0% for inhibition (Serine/threonine-protein kinase ULK1 (ULK1, Homo sapiens, UniProt O75385); enzyme activity).
The inhibition was 1% (Platelet-derived growth factor receptor alpha (PDGFRA, Homo sapiens, UniProt P16234); enzyme activity).
It gave 0% for inhibition (Wee1-like protein kinase (WEE1, Homo sapiens, UniProt P30291); enzyme activity).
For Non-receptor tyrosine-protein kinase TYK2, JH1 domain (TYK2, Homo sapiens, UniProt P29597): inhibition read 6%.
For Serine/threonine-protein kinase 17B (STK17B, Homo sapiens, UniProt O94768); enzyme activity: inhibition read 0%.
It gave 11% for inhibition (NUAK family SNF1-like kinase 2 (NUAK2, Homo sapiens, UniProt Q9H093); enzyme activity).
